Measured values gathered from unrelated publications.
Each numbered part is a random draw from the data of one study; scales do not carry over between parts.

Sample 1 — technique: RNA Bind-n-Seq; form: RNA; medium: in vitro; concentration: 365 nM; relative to: no-protein control; reading: higher = stronger binding
Target: RNA binding protein fox-1 homolog 2, RRM domain, GST-SBP tag (RBFOX2, Homo sapiens, UniProt O43251-10, residues 100-194)
Setting: natural RNA segment, single round, ends assumed
Shared flanks, not repeated: GGGAGUUCUACAGUCCGACGAUC … UGGAAUUCUCGGGUGCCAA
Construct (chain): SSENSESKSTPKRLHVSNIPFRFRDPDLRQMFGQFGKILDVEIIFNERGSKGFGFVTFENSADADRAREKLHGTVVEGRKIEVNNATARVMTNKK
| Sequence | RBNS enrichment (R) |
| --- | --- |
| UCAGGAAUGGUUAAUUCUUCAACGUUGGUAUGAUAAUGAUAACUUGUUUUGACUUGAAUAAAGUACUACAUCAGUGUGGAAAAAAAUUCUGAUACAUUAGCAGCUAUGUA | 0.581 |
| UGACGUCAAUGCAAUUGAAUCACCGUUGUCAUUCAGCGAGCAACCAAUGUAGGAUUGCCCACAGUUUUUCUUUUUAAAGGUGGUUUUCGCCCUUCCUCUCCCACAUUAUU | 0.858 |
| AUUAUUUAUACUUAUUAUAAAAAGUAUUUGAAAUUUGCACAUUUAAUUGUCCCUAAUAGAAAGCCACCUAUUCUUUGUUGGAUUUCUUCAAGUUUUUCUAAAUAAAUGUA | 1.03 |
| UGGGAGGAAGGAGAAUUUCCAUUAGGCAAGCUGUAUGCAGUGGAAUUUUCCUUUUAGGAGACACACAAUUAAGACUCUCUGGUUCUGUCCUUGCUUUGGAGACUUUAAGA | 0.732 |
| UCAUCGUCUUCCUUUUAUAGCUGUUUUACUUCAUUGAAUACGAUCAUGUACCCAGUGUUAACUCUUUGUUGUUGUCCCUUUCAAAUAUGGAUAACUCUGUGAACAGUCUU | 0.309 |
| UGGAUUUCCUUUCGAAUGGCACUACCUUAGGGACAUUCUAGUAUUGCUUCUAUUGUUUGGGCAUUGUGGAUAAUGUACAGAUUUAAAAACAAAUCUUGUUGCUGAUUUGU | 0.452 |
| CCUGUUGUAACUGAUUGUGAACACUUUUAUGAGCUUUAAAAUAAAGUUCAUCUUAUGGUGUCAUUUCAAACUGUUGAUUUUGUCACUAAUUUAAAAAAUGAGAUGAGGGA | 0.393 |
| UCCUCUCUUUCUGUGUUUUCUUAGGAUGUGCACUUUAAUUUAGGAUUGUAACGCCUAAUAAUAUUUCUGUGAGCCUUUAAUGUGAUUUAUAAGAUGGCCGAAUUACUGAA | 1.01 |

Sample 2 — technique: universal PBM; form: double-stranded DNA, one strand shown; medium: in vitro; concentration: 600 nM; reading: higher = stronger binding
Target: Sal-like protein 4, full length isoform A (SALL4, Homo sapiens, UniProt Q9UJQ4, residues 1-1053)
Sequence of UniProt Q9UJQ4 (whole entry, looked up): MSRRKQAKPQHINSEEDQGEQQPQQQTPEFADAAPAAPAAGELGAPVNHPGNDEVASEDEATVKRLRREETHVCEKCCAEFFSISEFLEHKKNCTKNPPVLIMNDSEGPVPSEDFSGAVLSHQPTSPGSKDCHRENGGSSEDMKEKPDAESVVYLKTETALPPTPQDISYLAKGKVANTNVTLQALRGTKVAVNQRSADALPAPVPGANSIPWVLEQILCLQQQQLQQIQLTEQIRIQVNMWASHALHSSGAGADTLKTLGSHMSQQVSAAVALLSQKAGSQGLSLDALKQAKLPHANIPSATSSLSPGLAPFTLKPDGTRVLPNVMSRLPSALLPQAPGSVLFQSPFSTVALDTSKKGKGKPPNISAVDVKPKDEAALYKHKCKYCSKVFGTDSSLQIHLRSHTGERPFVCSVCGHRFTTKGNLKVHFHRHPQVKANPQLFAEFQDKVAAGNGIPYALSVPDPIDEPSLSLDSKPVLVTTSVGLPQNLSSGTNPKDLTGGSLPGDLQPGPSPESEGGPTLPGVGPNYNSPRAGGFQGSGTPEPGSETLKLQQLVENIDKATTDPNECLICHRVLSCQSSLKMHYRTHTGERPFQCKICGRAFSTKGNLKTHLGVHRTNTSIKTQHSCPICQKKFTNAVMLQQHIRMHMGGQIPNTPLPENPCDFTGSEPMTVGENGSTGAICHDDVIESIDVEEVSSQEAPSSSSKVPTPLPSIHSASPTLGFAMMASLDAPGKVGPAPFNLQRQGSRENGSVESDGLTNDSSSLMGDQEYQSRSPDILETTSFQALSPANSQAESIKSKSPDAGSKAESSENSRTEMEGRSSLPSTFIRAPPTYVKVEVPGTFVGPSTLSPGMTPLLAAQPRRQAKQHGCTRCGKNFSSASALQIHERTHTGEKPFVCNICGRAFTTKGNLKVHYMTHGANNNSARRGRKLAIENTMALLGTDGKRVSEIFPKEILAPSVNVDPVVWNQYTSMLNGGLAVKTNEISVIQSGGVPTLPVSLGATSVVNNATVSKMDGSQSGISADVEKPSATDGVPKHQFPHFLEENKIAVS
Setting: 8-mer, flanks averaged, mean of replicates
| Sequence | E-score |
| --- | --- |
| GGGGCCAA | -0.357 |
| AGCATCAG | -0.0437 |
| AGGTAAGA | 0.0748 |
| GACATCCC | -0.267 |
| GATATACC | 0.219 |
| CGATACGC | -0.0895 |
| ACCCTGCC | -0.288 |
| CCGACCAC | -0.16 |
| ATCACTGG | 0.0121 |
| ATCCTCGG | -0.247 |
| TACTGAAA | 0.306 |
| AGCGTCCT | -0.191 |
| CACACCGC | -0.254 |
| CCAGCCCC | -0.257 |
| CCCGTGAA | -0.0354 |
| CCATGACA | 0.0243 |

Sample 3 — technique: protein-binding microarray; form: double-stranded DNA, one strand shown; medium: in vitro; concentration: 250 nM; setting: 60-bp whole probe; with: salmon DNA 0.4 mg/ml; relative to: random background probes; reading: higher = stronger binding; shared flanks, not repeated: GCCTAGCAC … GTCTTGATTCGCTTGACGCTGCTG
Target: Interferon regulatory factor 7, full length, phosphomimetic (IRF7, Homo sapiens, UniProt Q92985, residues 1-503, S101K/S471D/S472D/S475D/S476D/S477D/S483D/S484D/S487D)
Construct (chain): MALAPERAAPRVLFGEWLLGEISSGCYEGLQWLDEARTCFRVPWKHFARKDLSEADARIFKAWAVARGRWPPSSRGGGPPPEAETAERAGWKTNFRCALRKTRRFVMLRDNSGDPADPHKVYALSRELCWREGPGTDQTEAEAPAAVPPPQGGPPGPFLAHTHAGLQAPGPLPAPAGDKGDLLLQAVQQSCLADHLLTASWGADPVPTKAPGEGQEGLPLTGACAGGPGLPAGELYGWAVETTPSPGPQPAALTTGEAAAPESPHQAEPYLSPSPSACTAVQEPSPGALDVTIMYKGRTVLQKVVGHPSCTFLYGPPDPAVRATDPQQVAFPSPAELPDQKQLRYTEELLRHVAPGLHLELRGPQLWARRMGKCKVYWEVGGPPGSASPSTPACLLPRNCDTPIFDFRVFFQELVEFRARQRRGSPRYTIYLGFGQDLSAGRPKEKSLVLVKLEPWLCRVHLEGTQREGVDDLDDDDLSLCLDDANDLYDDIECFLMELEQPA
| Sequence | log fluorescence |
| --- | --- |
| GCCGGTTCCCTTTTCCTGACGTGCTAG | 3.15 z-score |
| TCAATTCTCACTGCAGCACTGTGCTAG | 0.514 z-score |
| TTAGCACTGGGGTATCGGTTAGTGCTA | -0.116 z-score |
| TTAGATTTCAGGATCGATTAGTGCTAG | 0.766 z-score |
| CTTGGTAAATTTAGCCGACGGTGCTAG | -0.286 z-score |
| TTAGGACTGGACTTTCGGTAAGTGCTA | -0.109 z-score |
| GACGACATCGGGTATCGAGACGTGCTA | -0.261 z-score |
| GACTAACTGAGACTGGAGACGTGCTAG | -0.0212 z-score |
| GACGATATAAGTATCGAGACGTGCTAG | -0.134 z-score |
| TCAGATTTTTAGTTAGAACTGTGCTAG | 0.144 z-score |
| TTATATTCCAGTTTCGATTAGTGCTAG | 9.74 z-score |
| GACGGTCTCGCTATCGGGACGTGCTAG | 0.601 z-score |
| CGGCCTCTAGGTTTTCTGAAGTGCTAG | -0.41 z-score |
| ATGACTCTGCCTCTAACTGCGTGCTAG | 0.104 z-score |
| CCACACACCATTCTCGGGACGTGCTAG | 0.249 z-score |
| TTAGGTATCGAGACTGGGTTAGTGCTA | 0.125 z-score |
| TTATGTTCCGGTTTCGGTTAGTGCTAG | 9.67 z-score |
| TTAGATATCAGGCTGGATTAGTGCTAG | -0.286 z-score |

Sample 4 — technique: protein binding microarray; form: double-stranded DNA, one strand shown; medium: in vitro; concentration: not given; relative to: not given; reading: higher = stronger binding
Target: Histone acetyltransferase KAT6A, winged helix 2, GST fusion (KAT6A, Homo sapiens, UniProt Q92794, residues 85-181)
Setting: 8-mer, flanks averaged, mean of 2 arrays, mostly near background
Construct (chain): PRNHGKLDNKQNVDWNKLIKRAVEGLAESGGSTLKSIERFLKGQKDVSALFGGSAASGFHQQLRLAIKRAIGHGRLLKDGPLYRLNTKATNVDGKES
| Sequence | E-score |
| --- | --- |
| ATAATAAA | 0.254 |
| AGGCCGAG | 0.0517 |
| ATATCTTC | -0.0158 |
| TAATACTA | 0.0844 |
| AGCCGCAT | 0.131 |
| CCGTTAAA | -0.148 |
| ATTGAGAA | 0.0434 |
| AAGCAGGG | 0.0917 |
| CGCGCGGA | 0.237 |
| GACCGAGC | 0.0969 |
| ATGAATGC | 0.0614 |
| AGTCAGAA | -0.0539 |
| GACCGGCA | 0.0708 |
| CAAAGAGG | -0.0933 |
| AGCTCATG | 0.0368 |
| AACAGGAT | -0.0976 |
| CAAGCCAA | 0.094 |
| CAACCCGG | 0.00147 |
| AGGCTCGG | 0.0231 |
| AGGTGAGG | 0.107 |
| AATCATGG | -0.0215 |
| CTCAAGGA | -0.0229 |

Single results of other studies — technique: cross-linking MS
| Molecule | partner | test system | setting | quantity | result |
| --- | --- | --- | --- | --- | --- |
| PNN (Homo sapiens, UniProt Q9H307) | ACIN1 (Homo sapiens, UniProt Q9UKV3) | cell fractions | with: DSSO | cross-linked residues | K157 to K1073 |
| PSMD9 (Homo sapiens, UniProt O00233) | PSMC3 (Homo sapiens, UniProt P17980) |  | hits only | interaction screen | cross-linked |
| GPRC5C (Homo sapiens, UniProt Q9NQ84) | UBA2 (Homo sapiens, UniProt Q9UBT2) | cell fractions | with: DSSO | cross-linked residues | K329 to K236 |

A few entries again (sample 2):
| Sequence | E-score |
| --- | --- |
| AGCATCAG | -0.0437 |
| AGGTAAGA | 0.0748 |
| GACATCCC | -0.267 |
| GATATACC | 0.219 |
| CGATACGC | -0.0895 |
| ACCCTGCC | -0.288 |
